Values quoted from earlier work, collected from citations in different studies.
Each line is one published result; not all experiments were run side by side. Numbers after ± are the reported error.
TACR1: Substance-P receptor (TACR1, Homo sapiens, UniProt P25103)
gag-pol: Gag-Pol polyprotein (gag-pol, Human immunodeficiency virus 1, UniProt P12497)
gag-pol integrase: Gag-Pol polyprotein, integrase (gag-pol, Human immunodeficiency virus 1, UniProt P12497)
pyrG: pyrG (Escherichia coli, UniProt P0A7E5)

For `Ic1ccccc1CN[C@@H]1C2CCN(CC2)[C@@H]1C(c1ccccc1)c1ccccc1` (racemic), the IC50 was 3.6 nM (TACR1).
The IC50 of `CCCc1nn(C)c2c(=O)[nH]c(-c3cc(S(=O)(=O)N4CCN(C)CC4)ccc3OCC)nc12` is reported as 1500 nM (Solute carrier organic anion transporter family member 1B1 (SLCO1B1, Homo sapiens, UniProt Q9Y6L6); transport, inhibitor; OATP1B1, literature value, together with: Bosentan substrate).
The IC50 of `CN1CCc2[nH]c3ccccc3c2CC1` is reported as 6900 ± 500 nM (Neuronal acetylcholine receptor subunit alpha-7 (CHRNA7, Homo sapiens, UniProt P36544); inhibitor; together with: 100 µM acetylcholine).
`O=C(O)C(=O)C=C(O)c1cn(Cc2ccc(F)cc2)c2cc(N3CCCC3)ccc2c1=O` has an IC50 of 495 nM (gag-pol; concerted integration (full-site); HIV-1).
For `Ic1ccccc1CN[C@@H]1C2CCN(CC2)[C@@H]1C(c1ccccc1)c1ccccc1` (racemic), the IC50 was 3.6 nM (TACR1; inhibitor; historical measurement).
For `CCn1cc(C(=O)O)c(=O)c2cc3c(cc21)OCO3`, the IC50 was over 30000 nM (DNA gyrase (gyrA/gyrB, Escherichia coli, UniProt P0AES4+P0AES6); enzyme activity, inhibitor).
The IC50 of `CCN1C[C@H](C)n2c(c(O)c3c(=O)n(Cc4ccc(F)c(Cl)c4)nc(C(=O)NC)c32)C1=O` is reported as 365 nM (gag-pol integrase; concerted integration (half-site); HIV-1).
`O=c1cc(-c2ccc(O)cc2)oc2cc(O)c(O)c(O)c12` has an IC50 of 860 nM (SARS-CoV-2 NSP13 helicase; enzyme activity, inhibitor).
`Nc1ccn([C@@H]2O[C@H](COP(=O)(O)OP(=O)(O)OP(=O)(O)O)[C@@H](O)[C@H]2F)c(=O)n1` has an IC50 of 109000 nM (pyrG; enzyme activity, inhibitor; wild type, together with: UTP 0.05 mM).
For `CCC1=CC2Cc3nc4cccc(Cl)c4c(N)c3C(C1)C2` (stereo not shown), the IC50 was 11.7 nM (Acetylcholinesterase (ACHE, Homo sapiens, UniProt P22303)).
`O=C(NCc1ccc(F)cc1)c1nc(N2CCCCS2(=O)=O)c2cccnc2c1O` has an IC50 of 245 nM (gag-pol integrase; concerted integration (half-site); HIV-1).
`Ic1ccccc1CN[C@@H]1C2CCN(CC2)[C@@H]1C(c1ccccc1)c1ccccc1` (racemic) has an IC50 of 3.6 nM (TACR1; inhibitor; historical reference value).
`CN(C)C(=O)C(=O)N(C)c1nc(C(=O)NCc2ccc(F)cc2)c(O)c2ncccc12` has an IC50 of 102 nM (gag-pol; concerted integration (full-site); HIV-1).
For `COC(=O)C1=CO[C@@H](O[C@@H]2O[C@H](CO)[C@@H](O)[C@H](O)[C@H]2O)[C@@H]2[C@@H](C)[C@@H](O)C[C@H]12`, the IC50 was 3950 nM (acetylcholinesterase; inhibitor).
The IC50 of `Nc1ccn([C@@H]2O[C@H](COP(=O)(O)OP(=O)(O)OP(=O)(O)O)[C@@H](O)[C@H]2O)c(=O)n1` is reported as 97000 nM (pyrG; enzyme activity, inhibitor; wild type, together with: UTP 0.05 mM).
The IC50 of `COc1cc2nc(N3CCN(C(=O)c4ccco4)CC3)nc(N)c2cc1OC` is reported as 1560 nM (Solute carrier family 22 member 1 (SLC22A1, Homo sapiens, UniProt O15245); transport activity, inhibitor; together with: YM155).
